Measurements of several laboratories.
Compare with care: the assays were run in different laboratories.

Substance | tested on | test | system | conditions | how to read | quantity | result
benzalkonium chloride | Escherichia coli |  | MC4100 |  |  | MIC | 32 µM
colistin | Escherichia coli | broth microdilution | clinical isolate RKI-No_582/16 |  |  | MIC | ≤ 0.5 µg/mL
polymyxin B acetate | Escherichia coli | broth microdilution | ATCC 13883 | various colistin salts |  | MIC | 0.25 µg/mL
colistin | Escherichia coli | broth microdilution | ATCC 25922 | 18 h |  | MIC | 2 µM
polymyxin B | Escherichia coli | broth microdilution | ATCC 25922, Mueller-Hinton broth | 24 h, 37 °C |  | MIC | 1 µg/mL
GSGAGKETRV | human MAGI1-2/6 PDZ construct (MBP fusion) | automated holdup | peptide, purified PDZ protein | concentration not given, unit not given | baseline: biotin control resin, higher = stronger binding | binding intensity | 0.246
polymyxin B | Escherichia coli |  | ATCC 25922 |  |  | MIC | 0.7 µg/mL
GLFQWISGA | Jurkat T cells expressing 1G4 TCR | NFAT-eGFP reporter, fluorescence microscopy | peptide | concentration not given, HLA-A*02:01 NY-ESO system |  | reporter activation | 0.00194%
colistin | Escherichia coli | broth microdilution | ATCC 25922 | susceptible reference strain |  | MIC | 0.125 to 0.5 µg/mL
WLGQWIARL | Jurkat T cells expressing 1G4 TCR | NFAT-eGFP reporter, flow cytometry | peptide | concentration not given, HLA-A*02:01 NY-ESO system |  | reporter activation | 0.18%
polymyxin B sulfate | Escherichia coli | broth microdilution | ATCC 25922 | various colistin salts |  | MIC | 0.06 µg/mL
gentamicin sulfate | Escherichia coli |  | ATCC 25922, susceptible | 18 h, 37 °C, dark |  | MIC | 0.125 µM

Repeated from above:
Substance | tested on | test | system | conditions | how to read | quantity | result
polymyxin B sulfate | Escherichia coli | broth microdilution | ATCC 25922 | various colistin salts |  | MIC | 0.06 µg/mL
